Results gathered from unrelated publications.
Parts stem from different laboratories: compare values within a part only. “And” joins repeats or separate records; there may be more than shown.
Sequence of UniProt Q9H0K1 (whole entry, looked up): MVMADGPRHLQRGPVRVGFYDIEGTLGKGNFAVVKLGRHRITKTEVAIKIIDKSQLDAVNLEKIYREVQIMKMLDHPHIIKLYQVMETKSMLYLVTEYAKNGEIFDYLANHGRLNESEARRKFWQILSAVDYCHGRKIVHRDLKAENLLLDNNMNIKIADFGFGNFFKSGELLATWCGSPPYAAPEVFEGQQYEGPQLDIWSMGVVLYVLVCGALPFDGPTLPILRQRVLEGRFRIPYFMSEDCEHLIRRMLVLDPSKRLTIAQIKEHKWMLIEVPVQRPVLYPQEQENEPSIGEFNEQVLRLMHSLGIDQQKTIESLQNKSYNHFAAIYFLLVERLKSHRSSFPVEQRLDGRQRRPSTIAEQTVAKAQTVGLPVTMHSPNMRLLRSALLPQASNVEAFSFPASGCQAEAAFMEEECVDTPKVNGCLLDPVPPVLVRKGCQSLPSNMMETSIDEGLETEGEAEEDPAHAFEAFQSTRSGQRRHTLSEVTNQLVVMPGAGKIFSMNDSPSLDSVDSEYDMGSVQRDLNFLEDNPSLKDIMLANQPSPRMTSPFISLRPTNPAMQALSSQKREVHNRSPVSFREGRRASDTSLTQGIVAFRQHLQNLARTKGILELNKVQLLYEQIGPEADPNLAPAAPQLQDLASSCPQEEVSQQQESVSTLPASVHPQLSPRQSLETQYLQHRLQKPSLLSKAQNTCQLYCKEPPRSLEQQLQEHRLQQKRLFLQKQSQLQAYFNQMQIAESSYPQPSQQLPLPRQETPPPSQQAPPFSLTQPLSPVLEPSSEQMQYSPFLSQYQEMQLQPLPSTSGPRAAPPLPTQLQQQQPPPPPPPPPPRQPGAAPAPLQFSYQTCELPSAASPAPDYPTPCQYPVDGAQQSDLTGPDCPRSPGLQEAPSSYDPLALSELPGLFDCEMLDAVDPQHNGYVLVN
Sequence of UniProt Q9NQU5 (whole entry, looked up): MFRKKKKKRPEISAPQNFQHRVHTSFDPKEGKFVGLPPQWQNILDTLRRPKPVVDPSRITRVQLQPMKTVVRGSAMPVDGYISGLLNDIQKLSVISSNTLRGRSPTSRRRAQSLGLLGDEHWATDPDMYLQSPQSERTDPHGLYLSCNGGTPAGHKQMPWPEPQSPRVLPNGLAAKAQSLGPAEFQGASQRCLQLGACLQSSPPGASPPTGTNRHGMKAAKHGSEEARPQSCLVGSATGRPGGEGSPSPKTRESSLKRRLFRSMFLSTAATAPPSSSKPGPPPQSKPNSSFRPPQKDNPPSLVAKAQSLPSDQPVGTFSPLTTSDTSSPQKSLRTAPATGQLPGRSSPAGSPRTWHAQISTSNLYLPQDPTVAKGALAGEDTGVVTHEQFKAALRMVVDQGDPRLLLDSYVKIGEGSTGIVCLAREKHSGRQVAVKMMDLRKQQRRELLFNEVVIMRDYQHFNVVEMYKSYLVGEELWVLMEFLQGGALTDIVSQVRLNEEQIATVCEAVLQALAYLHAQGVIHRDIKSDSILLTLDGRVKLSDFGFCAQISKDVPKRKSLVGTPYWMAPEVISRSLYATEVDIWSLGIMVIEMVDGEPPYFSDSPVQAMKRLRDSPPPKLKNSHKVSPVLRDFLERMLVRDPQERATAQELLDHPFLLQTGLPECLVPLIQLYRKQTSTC
Sequence of UniProt Q9BUB5 (whole entry, looked up): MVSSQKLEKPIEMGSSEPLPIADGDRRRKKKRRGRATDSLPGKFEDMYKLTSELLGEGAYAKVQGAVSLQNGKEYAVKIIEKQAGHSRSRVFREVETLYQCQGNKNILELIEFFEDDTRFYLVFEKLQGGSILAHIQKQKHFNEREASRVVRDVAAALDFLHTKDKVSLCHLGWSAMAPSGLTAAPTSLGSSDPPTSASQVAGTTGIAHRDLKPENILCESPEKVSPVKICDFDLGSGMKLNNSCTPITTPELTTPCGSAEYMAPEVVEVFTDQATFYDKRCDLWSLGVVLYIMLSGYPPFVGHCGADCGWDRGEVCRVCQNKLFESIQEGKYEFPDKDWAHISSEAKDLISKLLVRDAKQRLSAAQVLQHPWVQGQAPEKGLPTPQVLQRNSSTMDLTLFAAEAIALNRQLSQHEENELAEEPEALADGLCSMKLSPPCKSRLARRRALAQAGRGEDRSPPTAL
Sequence of UniProt Q9HBH9 (whole entry, looked up): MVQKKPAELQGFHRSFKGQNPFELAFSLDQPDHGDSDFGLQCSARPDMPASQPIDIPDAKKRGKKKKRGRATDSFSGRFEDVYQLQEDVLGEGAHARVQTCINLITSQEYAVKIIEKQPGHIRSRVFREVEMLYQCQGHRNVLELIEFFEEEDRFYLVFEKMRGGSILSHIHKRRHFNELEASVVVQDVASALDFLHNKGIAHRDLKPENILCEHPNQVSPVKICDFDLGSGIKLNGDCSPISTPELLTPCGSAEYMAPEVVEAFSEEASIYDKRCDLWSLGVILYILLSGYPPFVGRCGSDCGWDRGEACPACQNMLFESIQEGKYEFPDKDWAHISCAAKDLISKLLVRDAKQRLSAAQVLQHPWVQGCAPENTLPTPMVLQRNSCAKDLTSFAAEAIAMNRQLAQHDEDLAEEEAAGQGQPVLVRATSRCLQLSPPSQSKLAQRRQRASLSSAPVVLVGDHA
Sequence of UniProt P42680 (whole entry, looked up): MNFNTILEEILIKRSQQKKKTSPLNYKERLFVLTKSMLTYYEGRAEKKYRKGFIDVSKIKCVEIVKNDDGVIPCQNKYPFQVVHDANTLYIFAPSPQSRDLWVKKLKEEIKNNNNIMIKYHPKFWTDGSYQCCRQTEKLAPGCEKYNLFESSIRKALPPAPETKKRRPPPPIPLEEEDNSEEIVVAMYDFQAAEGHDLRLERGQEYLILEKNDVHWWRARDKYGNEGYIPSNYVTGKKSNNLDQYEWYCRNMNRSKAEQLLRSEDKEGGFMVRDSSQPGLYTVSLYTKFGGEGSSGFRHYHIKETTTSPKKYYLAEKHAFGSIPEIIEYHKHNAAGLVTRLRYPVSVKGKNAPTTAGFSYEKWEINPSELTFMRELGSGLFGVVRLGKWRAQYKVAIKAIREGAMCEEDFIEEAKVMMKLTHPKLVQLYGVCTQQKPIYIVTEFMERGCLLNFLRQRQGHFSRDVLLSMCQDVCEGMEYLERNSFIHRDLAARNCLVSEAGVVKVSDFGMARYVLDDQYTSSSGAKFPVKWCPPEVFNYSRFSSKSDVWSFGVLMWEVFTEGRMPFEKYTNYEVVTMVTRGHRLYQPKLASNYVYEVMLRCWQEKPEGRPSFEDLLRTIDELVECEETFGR
Sequence of UniProt Q96SB4 (whole entry, looked up): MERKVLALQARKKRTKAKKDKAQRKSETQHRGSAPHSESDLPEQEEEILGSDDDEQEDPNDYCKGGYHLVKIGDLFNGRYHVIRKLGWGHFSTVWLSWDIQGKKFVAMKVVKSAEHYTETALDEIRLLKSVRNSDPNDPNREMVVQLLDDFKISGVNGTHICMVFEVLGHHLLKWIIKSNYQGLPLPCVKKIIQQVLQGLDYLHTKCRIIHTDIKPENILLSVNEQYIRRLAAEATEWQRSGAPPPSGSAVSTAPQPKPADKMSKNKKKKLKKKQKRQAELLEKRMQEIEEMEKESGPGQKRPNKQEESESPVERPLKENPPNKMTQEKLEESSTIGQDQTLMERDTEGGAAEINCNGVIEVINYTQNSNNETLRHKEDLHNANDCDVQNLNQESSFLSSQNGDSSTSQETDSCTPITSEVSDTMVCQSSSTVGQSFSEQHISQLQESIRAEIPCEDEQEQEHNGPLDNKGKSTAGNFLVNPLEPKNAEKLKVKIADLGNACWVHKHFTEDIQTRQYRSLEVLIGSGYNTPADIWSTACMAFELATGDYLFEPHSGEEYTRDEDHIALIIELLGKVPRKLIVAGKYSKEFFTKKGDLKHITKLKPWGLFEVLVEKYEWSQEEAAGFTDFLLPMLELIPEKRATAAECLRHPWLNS
Sequence of UniProt O00141 (whole entry, looked up): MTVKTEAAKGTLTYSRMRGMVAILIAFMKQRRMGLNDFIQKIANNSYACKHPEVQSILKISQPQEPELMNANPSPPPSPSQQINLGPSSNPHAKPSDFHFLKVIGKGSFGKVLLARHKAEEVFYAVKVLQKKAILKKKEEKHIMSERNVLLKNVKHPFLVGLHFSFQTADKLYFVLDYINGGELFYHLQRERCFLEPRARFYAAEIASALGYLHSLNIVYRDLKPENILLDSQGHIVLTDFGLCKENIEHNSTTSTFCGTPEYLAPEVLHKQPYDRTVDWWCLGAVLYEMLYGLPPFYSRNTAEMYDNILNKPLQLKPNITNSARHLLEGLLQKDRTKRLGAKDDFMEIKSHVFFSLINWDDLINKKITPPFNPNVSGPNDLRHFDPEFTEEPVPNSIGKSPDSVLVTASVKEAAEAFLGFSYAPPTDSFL
Sequence of UniProt Q13153 (whole entry, looked up): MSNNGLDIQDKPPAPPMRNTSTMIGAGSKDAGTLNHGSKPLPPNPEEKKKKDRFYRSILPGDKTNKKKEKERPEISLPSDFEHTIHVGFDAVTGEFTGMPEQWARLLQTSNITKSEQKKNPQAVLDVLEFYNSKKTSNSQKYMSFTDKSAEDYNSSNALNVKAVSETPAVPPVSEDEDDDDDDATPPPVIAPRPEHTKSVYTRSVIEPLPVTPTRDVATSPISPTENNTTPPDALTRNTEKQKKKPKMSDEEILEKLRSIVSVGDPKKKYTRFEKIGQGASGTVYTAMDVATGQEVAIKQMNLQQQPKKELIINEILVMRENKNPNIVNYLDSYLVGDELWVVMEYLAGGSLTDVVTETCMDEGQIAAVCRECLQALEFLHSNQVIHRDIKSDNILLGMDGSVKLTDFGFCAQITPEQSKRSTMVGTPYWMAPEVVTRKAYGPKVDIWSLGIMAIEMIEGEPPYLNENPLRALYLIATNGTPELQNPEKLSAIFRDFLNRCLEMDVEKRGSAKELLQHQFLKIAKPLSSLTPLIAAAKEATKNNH

Set 1 — host: human; medium: microsomes or S9; concentration: 2 µM; time: 0.5 h
| SMILES | remaining compound [%] |
| --- | --- |
| O=C(Nc1n[nH]c(Cc2ccc(F)cc2)n1)c1ccn2nnnc2c1 | 31.1 |
| CN(C)CCCNC(=O)c1cc(S(=O)(=O)N(C)C)c(Cl)cc1Cl | > 99 |
| CCc1cc(=O)[nH]c(-n2nc(C)cc2NC(=O)c2c(-c3ccccc3Cl)noc2C)n1 | 75.3 |
| CC(C)(C)OC(=O)N1c2ccccc2[C@H]2OC(=O)C[C@H]21 | 70.1 |
| COc1cc(=O)n2c(c1C(=O)NCc1ccc(F)cc1Cl)CCCC2 | 4.51 |
| NS(=O)(=O)c1cccc(S(=O)(=O)N2CCCc3c2cccc3S(N)(=O)=O)c1 | 97.9 |
| c1cnc2c(c1)OC(Cn1nnc3ncc(-c4ccc(OCC5CCNCC5)cc4)nc31)CN2 (centres unmarked) | 91.9 |

Set 2 — Compound: Oc1ccc(Nc2nc(-c3ccc(Cl)cc3)cs2)cc1; read-out: enzyme activity; action: inhibitor; concentration: 0.5 µM; reference: control
| target | remaining activity [%] |
| --- | --- |
| Serine/threonine-protein kinase Sgk2 (SGK2, Homo sapiens, UniProt Q9HBY8) | 108 |
| Serine/threonine-protein kinase PAK 6 (PAK6, Homo sapiens, UniProt Q9NQU5) | 100 |
| Serine/threonine-protein kinase PAK 1 (PAK1, Homo sapiens, UniProt Q13153) | 99.4 |
| Muscle, skeletal receptor tyrosine-protein kinase (MUSK, Homo sapiens, UniProt O15146) | 99.5 |
| Vascular endothelial growth factor receptor 1 (FLT1, Homo sapiens, UniProt P17948) | 82.3 |
| Protein kinase C zeta type (PRKCZ, Homo sapiens, UniProt Q05513) | 105 |
| Ribosomal protein S6 kinase alpha-3 (RPS6KA3, Homo sapiens, UniProt P51812) | 107 |
| Serine/threonine-protein kinase SIK2 (SIK2, Homo sapiens, UniProt Q9H0K1) | 90.7 |
| Casein kinase I isoform delta (CSNK1D, Homo sapiens, UniProt P48730) | 105 |
| Mitogen-activated protein kinase kinase kinase 20 (MAP3K20, Homo sapiens, UniProt Q9NYL2) | 92.7 |
| Ephrin type-A receptor 2 (EPHA2, Homo sapiens, UniProt P29317) | 105 |
| Tyrosine-protein kinase JAK1 (JAK1, Homo sapiens, UniProt P23458) | 97.1 |
| SRSF protein kinase 1 (SRPK1, Homo sapiens, UniProt Q96SB4) | 103 |
| Dual specificity protein kinase CLK2 (CLK2, Homo sapiens, UniProt P49760) | 102 |
| Calcium/calmodulin-dependent protein kinase type 1 (CAMK1, Homo sapiens, UniProt Q14012) | 111 |
| Calcium/calmodulin-dependent protein kinase kinase 1 (CAMKK1, Homo sapiens, UniProt Q8N5S9) | 124 |
| Protein kinase C theta type (PRKCQ, Homo sapiens, UniProt Q04759) | 123 |
| Insulin-like growth factor 1 receptor (IGF1R, Homo sapiens, UniProt P08069) | 102 |
| Cyclin-dependent kinase 2, with cyclin E (CDK2, Homo sapiens, UniProt P24941) | 91.9 |
| Casein kinase I isoform epsilon (CSNK1E, Homo sapiens, UniProt P49674) | 103 |
| Tyrosine-protein kinase receptor TYRO3 (TYRO3, Homo sapiens, UniProt Q06418) | 102 |
| Ephrin type-A receptor 6 (EPHA6, Homo sapiens, UniProt Q9UF33) | 101 |
| Tyrosine-protein kinase Tec (TEC, Homo sapiens, UniProt P42680) | 120 |

Set 3 — technique: competition with immobilised ligand; concentration: 1 µM
Compound: Cc1nc(N2CC[C@@H](O)C2)ncc1-c1cc(C(F)(F)F)cc2[nH]ncc12
| target | test | remaining binding [%] |
| --- | --- | --- |
| Receptor-interacting serine/threonine-protein kinase 1 (RIPK1, Homo sapiens, UniProt Q13546) | binding | 100 |
| Serine/threonine-protein kinase Sgk1 (SGK1, Homo sapiens, UniProt O00141) | binding | 49 |
| Serine/threonine-protein kinase PLK1 (PLK1, Homo sapiens, UniProt P53350) | binding | 64 |
| Serine/threonine-protein kinase 33 (STK33, Homo sapiens, UniProt Q9BYT3) | binding | 100 |
| Receptor-type tyrosine-protein kinase FLT3 (FLT3, Homo sapiens, UniProt P36888, ITD) | binding | 100 |
| Serine/threonine-protein kinase SIK2 (SIK2, Homo sapiens, UniProt Q9H0K1) | binding | 100 |
| MAP kinase-interacting serine/threonine-protein kinase 2 (MKNK2, Homo sapiens, UniProt Q9HBH9) | binding | 76 |
| Serine/threonine-protein kinase Nek5 (NEK5, Homo sapiens, UniProt Q6P3R8) | binding | 100 |
| Serine/threonine-protein kinase Nek3 (NEK3, Homo sapiens, UniProt P51956) | binding | 60 |
| Receptor-interacting serine/threonine-protein kinase 2 (RIPK2, Homo sapiens, UniProt O43353) | binding | 95 |
| Receptor-type tyrosine-protein kinase FLT3 (FLT3, Homo sapiens, UniProt P36888, D835V/ITD) | binding | 54 |
| Serine/threonine-protein kinase Sgk3 (SGK3, Homo sapiens, UniProt Q96BR1) | binding | 70 |
| Serine/threonine-protein kinase PAK 6 (PAK6, Homo sapiens, UniProt Q9NQU5) | cell-free assay | 100 |
| Serine/threonine-protein kinase PAK 3 (PAK3, Homo sapiens, UniProt O75914) | cell-free assay | 72 |
| Serine/threonine-protein kinase MARK1 (MARK1, Homo sapiens, UniProt Q9P0L2) | binding | 74 |
| Phosphorylase b kinase gamma catalytic chain, liver/testis isoform (PHKG2, Homo sapiens, UniProt P15735) | cell-free assay | 100 |
| Mitogen-activated protein kinase kinase kinase 3 (MAP3K3, Homo sapiens, UniProt Q99759) | binding | 82 |
| MAP kinase-interacting serine/threonine-protein kinase 1 (MKNK1, Homo sapiens, UniProt Q9BUB5) | binding | 61 |
| Phosphatidylinositol 4,5-bisphosphate 3-kinase catalytic subunit alpha isoform (PIK3CA, Homo sapiens, UniProt P42336) | cell-free assay | 100 |

Set 4 — cell line: mouse MPNST tumor cells; technique: high-content nuclear imaging; refers to: cell number; concentration: 10 µM; time: 12 h; notes: mean of 2 replicates; reference: plate mean; direction: higher = more cells
| Structure (SMILES) | nuclei count |
| --- | --- |
| N#Cc1ccc(C(c2ccc(C#N)cc2)n2cncn2)cc1 | -0.0585 z-score and -0.13 z-score |
| CC1(C)CN2C(CSC(=NC3CCCCC3)NC3CCCCC3)=CSC2=N1 | -1.28 z-score |
| Cc1cc(C)nc(NS(=O)(=O)c2ccc(N)cc2)n1 | 1.28 z-score |
| COC(=O)[C@H](Cc1ccc([N+](=O)[O-])cc1)NC(=O)c1cccc2ccccc12 | 0.322 z-score |
| CCn1c(=O)[nH]c2cc(Cl)c(Cl)cc21 | 0.305 z-score |
| NS(=O)(=O)c1cc2c(cc1Cl)NC(CC1CCCC1)NS2(=O)=O (centres unmarked) | 1.71 z-score |
| NC(=O)c1cnccn1 | 0.0444 z-score and 1.01 z-score |
